Measured values from different studies.
Compare with care: the assays were run in different laboratories. pIC50: −log10 of the molar value.
Cell line: human Fibroblast
Read-out: cell growth or viability

SMILES | technique | time | pIC50
COc1ccc(/N=N/C(=S)N2CCN(C)CC2)cc1 | resazurin | 48 h | < 4.30
CCCCOC(=O)C[C@H]1Oc2ccccc2C(=O)[C@]1(C)[N+](=O)[O-] | SRB | 96 h | < 4.00
COC1CCC(Nc2nc(-c3nccn3C)nc3sc(-c4ccn(C)n4)c(-c4ccccc4)c23)C1 (stereo not shown) |  | 72 h | 6.52
C[C@]1([N+](=O)[O-])C(=O)c2ccccc2O[C@@H]1CC(=O)OC1CCCCC1 | SRB | 96 h | < 4.00
CN1CCCC1CCO/N=C1/C=C2CCC3C(CC[C@]4(C)/C(=C/c5ccccn5)CCC34)[C@@]2(C)CC1 (stereo partly shown) | resazurin | 72 h | 4.56
O=c1ccn([C@@H]2O[C@H](CSSc3ccccn3)[C@@H](O)[C@H](F)[C@H]2O)c(=O)[nH]1 |  |  | 5.04
C[C@]1([N+](=O)[O-])C(=O)c2ccccc2O[C@@H]1CC(=O)O | SRB | 96 h | < 4.00
Cc1cc2[nH]c(C(=O)Nc3cc(F)ccc3Cl)c(CN(C)C)c2s1 | SRB |  | < 4.70
C[C@]12CC/C(=N\OCCN3CCCCC3)C=C1CCC1C2CC[C@]2(C)/C(=C/c3ccccn3)CCC12 (stereo partly shown) | resazurin | 72 h | 4.70
Cc1ccc2c(c1)C(=O)[C@](C)([N+](=O)[O-])[C@@H](CC(=O)NC13CC4CC(CC(C4)C1)C3)O2 | SRB | 96 h | < 4.00
C[C@]12CC/C(=N\OCCN3CCOCC3)C=C1CCC1C2CC[C@]2(C)/C(=C/c3ccccn3)CCC12 (stereo partly shown) | resazurin | 72 h | < 4.30
COc1ccc(/N=N/C(=S)N2CCCC2)cc1 | resazurin | 48 h | < 4.30
CN(C)CCCO/N=C1/C=C2CCC3C(CC[C@]4(C)/C(=C/c5ccccn5)CCC34)[C@@]2(C)CC1 (stereo partly shown) | resazurin | 72 h | 5.12
C[C@]1([N+](=O)[O-])C(=O)c2ccccc2O[C@@H]1CC(=O)Nc1nc2ccccc2s1 | SRB | 96 h | < 4.00
C[C@]12CC/C(=N\OCCN3CCCC3)C=C1CCC1C2CC[C@]2(C)/C(=C/c3ccccn3)CCC12 (stereo partly shown) | resazurin | 72 h | 4.60
CSc1ccccc1NC(=O)c1[nH]c2cc(C)sc2c1CN1CCOCC1 | SRB |  | < 4.70

Some of these lines once more:
SMILES | technique | time | pIC50
COC1CCC(Nc2nc(-c3nccn3C)nc3sc(-c4ccn(C)n4)c(-c4ccccc4)c23)C1 (stereo not shown) |  | 72 h | 6.52
C[C@]1([N+](=O)[O-])C(=O)c2ccccc2O[C@@H]1CC(=O)Nc1nc2ccccc2s1 | SRB | 96 h | < 4.00
